Measured values pooled from the literature.
A part holds a random share of what one study measured. Substitutions count along the parent as printed.

Set 1 — target: CCNE2, cyclin fold, Cln2 fusion (human); technique: yeast growth competition, sequencing; matrix: yeast; notes: strong parent motif; reference: not given; direction: higher = stronger binding
Starting sequence: E2F1 docking peptide (human); PPVKRRLDLETDH
Change | normalised enrichment score
R5W | 0.104
L7N | -0.166
P2Y | 0.24
E10D | 2.26
H13N | 0.939
K4Y | -0.0457
V3L | -0.503
L7M | 0.226
T11N | 0.893
D12V | 2.24
R5K | -0.237
K4C | 1.47
D8H | 0.469

Set 2 — technique: RNA Bind-n-Seq; molecule type: RNA; matrix: in vitro; tested at: not given; notes: RNA with constant flanks, ends assumed; reference: input RNA pool; direction: higher = stronger binding
Target: RING finger protein unkempt homolog, zinc fingers 1-6, GST-SBP tag (UNK, Homo sapiens, UniProt Q9C0B0, residues 30-357)
Sequence of UniProt Q9C0B0 (30-357, looked up): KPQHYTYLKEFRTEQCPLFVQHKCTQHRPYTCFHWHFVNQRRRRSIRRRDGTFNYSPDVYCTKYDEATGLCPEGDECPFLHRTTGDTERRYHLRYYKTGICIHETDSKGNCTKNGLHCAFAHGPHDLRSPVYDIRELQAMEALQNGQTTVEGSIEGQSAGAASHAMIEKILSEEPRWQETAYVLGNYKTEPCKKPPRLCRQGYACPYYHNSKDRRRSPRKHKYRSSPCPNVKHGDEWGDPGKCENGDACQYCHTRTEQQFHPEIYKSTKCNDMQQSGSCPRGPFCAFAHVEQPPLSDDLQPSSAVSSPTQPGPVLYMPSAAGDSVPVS
Shared flanks, not repeated: GGGAGUUCUACAGUCCGACGAUC … CAACAGAGGAUUGAGCAUCA
Sequence | bound/input enrichment [ratio]
UUUAUAAGUCCAGAGUCUGGUUUUUAACAAGCUGUUCUUCAGUAUUCAGCUUAAGACCGGCAACUCUUUUCUGUACAUAGUGUACAUUACAACUAAAAGUAAUGGGAAACACUGUAUUUU | 0.166
GGGCCUCUGUUCAAUACUGACUAUGACAUCCUUAAAAGCAACUUGCAGAACUGCAGCAAAUUCCGUGCUAUACAAUGUGCAGCUGCCGUCCCUAGAGCUCCUGCUGAAUCCUCUUCGUCU | 0.25
AUUCUUUUAUCACCAAAAAAGAGAAGAAAUAUUGCAGUGAAUGAAGAUUCCUCUGCAUUUCCGCACUGCUUUUUCAACUGUAGUUGGCUUUUGAAUGAGGAUGACAAUGGAAGAGAUGAA | 0.167
UAAGAUGUAUUCUGUACAUAAUUUACAAAUAAAACAUUUUAUUUUAAUUGUUACUUAUUAUUCCGACAUUUCUCAACACUGAAAUUUGUAAAACAAAAACCAUGUAAGGUAUGUUUUUAG | 0.227
AAUAAACAGGAUAUGAAAGGGUGUAUGACAGCAGCUGAAAUCUCGAAAUACCUCACCCUCCGUUCAAUUAAGGAUCAUCCAUGGCACAUUCAAUCCUGCUGUGCUCUCACAGGAGAAGGG | 0.187
AAUCUUAAGCUUGCAACUGAACUCCCUGAUGCUGAACUUAGGAGGACUUUAUGGUCUUCCGCCGCUUUCCCAAAACUCAAACGGCAAGUUUUGUUGUAUGAACCUCAAGUCAACUCACCC | 0.158
GAAAUGGCCACCACAGAAGAUGCUCAGGCUGCUGUGGAUUAUUAUACAACUACACCAGCAUCCGUGUUUGGCAAGCCAGUGAGAGUUCAUUUAUCCCAGAAGUAUAAGAGAAUAAAGAAA | 0.581
CAGAAGGACCUCACGGAGUCUAAGGGAAAAAUAGUCCAGCUGGAGGGAAAGCUUGUUUCAACCGAGAAAGAAAAGAUCGAUGAAAAAUGUGAAACAGAAAAACUCUUAGAAUACAUCCAA | 0.304

Set 3 — technique: DHFR PCA, deep sequencing; matrix: yeast; added: (+)-ABA 0.39 µM; reference: wild-type fitted maximum; direction: higher = stronger binding
Target: ABI1, truncated, D143A, DHFR fusion (Arabidopsis thaliana)
Notes: methotrexate growth selection, single substitutions
Starting sequence: PYL1, truncated, DHFR fusion (Arabidopsis thaliana); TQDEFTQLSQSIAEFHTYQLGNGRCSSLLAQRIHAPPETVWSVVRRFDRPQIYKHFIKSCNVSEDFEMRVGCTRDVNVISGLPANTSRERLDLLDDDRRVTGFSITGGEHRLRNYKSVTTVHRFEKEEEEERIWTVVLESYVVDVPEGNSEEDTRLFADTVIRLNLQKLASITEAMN
Change | relative binding score [%]
E174W | -3.22
V76Q | 10.2
V100A | 37.3
S80A | 10.1
I172Y | 1.52
R46K | 15.4
S11N | 10.6
N22H | 49.9
K126Y | 44
S171R | 54.9
N149I | 28.1
D3E | 55.5
G71L | -5.01
S87F | 25

Set 4 — technique: RNA Bind-n-Seq; molecule type: RNA; matrix: in vitro; tested at: 365 nM; reference: no-protein control; direction: higher = stronger binding
Target: RNA binding protein fox-1 homolog 2, RRM domain, GST-SBP tag (RBFOX2, Homo sapiens, UniProt O43251-10, residues 100-194)
Notes: natural RNA segment, single round, ends assumed
Shared flanks, not repeated: GGGAGUUCUACAGUCCGACGAUC … UGGAAUUCUCGGGUGCCAA
Construct (chain): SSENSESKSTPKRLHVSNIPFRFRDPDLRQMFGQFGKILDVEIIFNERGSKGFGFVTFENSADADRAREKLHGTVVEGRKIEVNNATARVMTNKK
Sequence | RBNS enrichment (R)
GAAGUAAUGUAUACUCUAGUAUUCUGGUGUUUUUAUAUUUAUGUAAUAAUUUCUUAAAACCAUUCAGACAGAUAACUAUUUAAUUUUUUUUAAGAAAGUUGGAAAGGUCU | 0.548
CUUCCUGGUUCUGAUCAAAACCAGACCAAACCCUCAUUUCAGCAAAGCCUUGCAAGACACUCCCUUGCUCAUUUGCCAUAUUUAGAUGUCUUAGUGGAGUCAGAGCCCUG | 0.291
UUCCAUAUUUAUGUCUACGAUUUGGUGAAAACAUCCUAAUGUCAUCACAAACUCUGCCAAAUUUGUGGAACUAUGAAAUGUAUUAUUUGUAGACAUAAAGACUUGAUUGC | 0.81
UGAGAGGUGCAAAGAGGCAGAUCUUUGCUGCCAGCCACUUCAUCCCCUCCCAGAUGUUGGACCAACACCCCUCCCUGCCACCAGGCACUGCCUGGAGGGCAGGGAGUGGG | 0.211
UUUCGCGGACGCGCCUACCUAAGUACCAUUUACAGAAAGUGACUCUGGCUGUCAUUAUUUUGUUUAUUUGUUCCCUAUGCAAAAAAAAAAUGAAAAUGAAAAAAGGGGGA | 0.477
CACCAUAGACUUGAUCCCAUCCUUACAACCCAUCCUUCUAACUUGAUGUGUAUAAAAUAUGCAAACAUUUCACAAAUGUUCUUUGUCAUUUCAAAAUACUUUAGUAUAUC | 0.584
UGAUUAUAGCUAUGAGCCUUAUGGUAGACACUAUGUACCCUCUGCGGUGUAAUUGCAUUAUAGCUAUGUGCCUUGUGGUAAGCACUAUGUACUCUCUGCAUUGUCCAAAU | 2.91
ACUGAUGAACUAUAUAGACUGGACUCUUAACCUCUUAGUGCCUCAGUUUUUCCUUCGGGGUAUACUAUUUUAGAUACACCUACUUCACAGGAGUACUGGAGGGAUUUGCA | 3.79

Some of these lines once more (set 2):
Sequence | bound/input enrichment [ratio]
GAAAUGGCCACCACAGAAGAUGCUCAGGCUGCUGUGGAUUAUUAUACAACUACACCAGCAUCCGUGUUUGGCAAGCCAGUGAGAGUUCAUUUAUCCCAGAAGUAUAAGAGAAUAAAGAAA | 0.581
UAAGAUGUAUUCUGUACAUAAUUUACAAAUAAAACAUUUUAUUUUAAUUGUUACUUAUUAUUCCGACAUUUCUCAACACUGAAAUUUGUAAAACAAAAACCAUGUAAGGUAUGUUUUUAG | 0.227
